# Measurements from different studies.
# Protocols differ between the studies behind these lines. pIC50: −log10 of the molar value.
SMILES,cell line,test,test system,setting,measurement,value
CC(C)(C)c1nc(-c2cccc(NS(=O)(=O)c3c(F)cccc3F)c2F)c(-c2ccnc(N)n2)s1.Cc1[nH]c2ccccc2c1CCNCc1ccc(/C=C/C(=O)NO)cc1,C13,"cell growth or viability, crystal violet",,,pIC50,8.12
CC[C@H](C)[C@H](NC(=O)[C@H](CCCCN)NC(=O)[C@H]1CCC[C@@H]1NC(=O)[C@H](CC(C)C)NC(=O)CN)C(=O)N[C@H](CC(=O)N[C@@H](CCCCN)C(=O)N[C@@H](CCCCN)C(=O)N[C@H]1CCC[C@@H]1C(=O)N[C@@H](CC(C)C)C(=O)N[C@@H](CCCCN)C(=O)N[C@H](CC(=O)N[C@@H](Cc1ccccc1)C(N)=O)CC(C)C)[C@@H](C)CC,NIH 3T3,cytotoxicity,,,IC50,9.4 µg/mL
O=C(NCCOCCNC(=O)c1cc2ccccc2c2ccccc12)c1cc(C(=O)N2CCNCCNCCNCC2)c(O)c(C(=O)N2CCNCCNCCNCC2)c1,WI-38,"cell growth or viability, MTT",,24 h,pIC50,< 3.00
O=C1c2cccc[c]2[Au-]([Cl])([Cl])[n+]2ccccc21,A-375,"cell growth or viability, resazurin",,72 h,pIC50,4.72
O=C(NCc1cc(F)cc(F)c1)[C@@]1(O)CCN(c2ccc3[nH]ccc3c2)C1=O,SW982,cell growth or viability,,,pIC50,6.96
COc1cc(-c2cc(C(C)=O)n3ccccc23)cc(OC)c1Cn1ccnc1,EOL1,"cell growth or viability, ATP luminescence",,,pIC50,6.40
CC[C@H](C)[C@H](NC(=O)[C@H](CCCCN)NC(=O)C[C@H](Cc1ccccc1)NC(=O)[C@H](CC(C)C)NC(=O)CN)C(=O)N[C@H](CC(=O)N[C@@H](CCCCN)C(=O)N[C@@H](CCCCN)C(=O)N[C@H](CC(=O)N[C@@H](CC(C)C)C(=O)N[C@@H](CCCCN)C(=O)N[C@H](CC(=O)N[C@@H](Cc1ccccc1)C(N)=O)CC(C)C)[C@@H](C)CC)[C@@H](C)CC,NIH 3T3,cytotoxicity,,,IC50,9.6 µg/mL
Cc1ccc([N+](=O)[O-])cc1S(=O)(=O)N(C)/N=C/c1cnc2ccc(Br)cn12,RXF 393,MTS,,NCI60 panel,pIC50,7.10
COC(=O)N1c2ccc3c(nc(Cc4ccccc4)n3[C@@H]3CCC[C@@H](C(=O)O)C3)c2CC[C@@H]1C,MDA-MB-361,"cell growth or viability, ATP luminescence",,10 days,pIC50,5.68
CNS(=O)(=O)Nc1nccc(Cc2c(C)c3ccc(Oc4ncccc4F)cc3oc2=O)c1F,SK-MES-1,cell viability,,7 days,pIC50,8.18
C=CC(=O)Nc1cc(Nc2nccc(-c3cn(C)c4ccccc34)n2)c(OC)cc1N(C)CCN(C)C,Ba/F3 EGFR,cell growth or viability,,72 h,pIC50,6.66
COc1ccc(C(O)=CC(=O)c2ccc(C(C)(C)C)cc2)cc1.[Ru+2].c1ccc(-c2cccc(-c3ccccn3)n2)nc1.c1cnccn1,MIA PaCa-2,cytotoxicity,,dark,pIC50,6.92
CC[C@H](C)[C@H](NC(=O)[C@H](CCCCN)NC(=O)[C@H]1CCC[C@@H]1NC(=O)[C@H](CC(C)C)NC(=O)CN)C(=O)N[C@@H](C)CC(=O)N[C@@H](CCCCN)C(=O)N[C@@H](CCCCN)C(=O)N[C@H]1CCC[C@@H]1C(=O)N[C@H](C(=O)N[C@@H](CCCCN)C(=O)N[C@@H](C)CC(=O)N[C@@H](Cc1ccccc1)C(N)=O)[C@@H](C)CC,NIH 3T3,cytotoxicity,,,IC50,516 µg/mL
Cc1cc([C@H](C(=O)N2C[C@H](O)C[C@H]2C(=O)N[C@@H](CC(=O)N2CCC(N3CCC(C#Cc4ccc(C(=O)N[C@H]5C(C)(C)[C@H](Oc6ccc(C#N)c(Cl)c6)C5(C)C)cc4)CC3)CC2)c2ccc(-c3scnc3C)cc2)C(C)C)on1,HCC1428,"cell growth or viability, CCK-8",,7 days,pIC50,6.92
COc1cc(-c2cn(C)c(=O)c3cnccc23)cc(OC)c1Cn1ccnc1,EOL1,"cell growth or viability, ATP luminescence",,,pIC50,5.27
Cc1ccnc(-c2cc(C(=O)O)ccn2)c1.F[P-](F)(F)(F)(F)F.F[P-](F)(F)(F)(F)F.[Ru+2].c1ccc(-c2ccccn2)nc1.c1ccc(-c2ccccn2)nc1,MCF-10A,cell viability,,"48 h, light irradiation 2.5 min",pIC50,< 4.00
CN1CCC(N[C@@H]2CCc3[nH]c4c(C(N)=O)ccc(-c5ccccc5Cl)c4c3C2)CC1,Ramos,cell growth or viability,,,pIC50,8.63
COc1cc(-c2cc(C(C)=O)n3ccccc23)c(OC)cc1Cn1ccnc1,MOLM-13,"cell growth or viability, ATP luminescence",,,pIC50,7.00
CC#CC#C/C=C1/O[C@@]2(CCCCO2)[C@@H](O)[C@@H]1OC(C)=O,RAW264.7,"NO release, inhibitor, Griess",,LPS-stimulated,pIC50,5.13
CC(C)C(=O)Cc1c(OCC(O)C(C)(C)O)ccc2ccc(=O)oc12 (stereo not drawn),COLO 205,"cell growth or viability, MTT",,24 h,pIC50,< 4.00
CC(C)(O)C1CC[C@]2(C)C(CC=C3[C@@H]4C[C@](C)(CO)CC[C@]4(C(=O)O)CC[C@]32C)[C@@]1(C)CCC(=O)O (stereo partly drawn),RAW264.7,"NO release, inhibitor, Griess",,LPS-stimulated,pIC50,< 4.00
CC(C)c1ccc(N(C)c2ccc3c(c2)OCC[C@H]3CNc2cnccc2C(=O)O)cc1,Huh-7,"cell growth or viability, ATP luminescence",,7 days,pIC50,7.86
CCn1nc(Cl)c2c1-c1cnc(N)c(c1)O[C@H](C)c1cc(F)ccc1-c1nn(C)cc1C2,"Ba/F3 EML4-ALK v3, no mutation",cell viability,,,pIC50,8.96
Cn1ncc(-c2ccc3c(=O)[nH]nc(CN)c3c2)c1-c1c(F)c(Cl)cc(OC2CC2)c1C#N,SNU-387,"cell viability, inhibitor, CellTiter-Glo",,"120 h, baseline-subtracted",pIC50,5.84
CS(=O)(=O)c1sc(NC(=O)Nc2ccc(Cl)cc2)c2c1C=CCC2,PANC-1 NUPR1 wild-type clone,cell viability,,72 h,pIC50,5.09
O=C(NCCOCCOCCNC(=O)c1cc2ccccc2c2ccccc12)c1cc(C(=O)N2CCNCCNCCNCC2)c(O)c(C(=O)N2CCNCCNCCNCC2)c1,WI-38,"cell growth or viability, MTT",,24 h,pIC50,< 3.00
NCCOc1cc(NC(=O)c2cc(OCc3cn([C@H]4O[C@@H](CO)[C@H](O)[C@@H](O)[C@@H]4O)nn3)cc(C(=O)Nc3cc(OCCN)c4ccccc4n3)n2)nc2ccccc12,WI-38,"cell growth or viability, ATP luminescence",,72 h,pIC50,< 4.40
CCOc1cncc(-c2ccc(NC(=O)C3(c4ccnc(NS(=O)(=O)C5CC5)n4)CCOCC3)nc2)n1,EOL1,"cell proliferation, CellTiter-Glo",,72 h,pIC50,8.10
CC[C@H](C)[C@H](NC(=O)[C@H](CCCCN)NC(=O)C[C@H](Cc1ccccc1)NC(=O)[C@H](CC(C)C)NC(=O)CN)C(=O)N[C@H](CC(=O)N[C@@H](CCCCN)C(=O)N[C@@H](CCCCN)C(=O)N[C@H](CC(=O)N[C@@H](C)C(=O)N[C@@H](CCCCN)C(=O)N[C@@H](CO)CC(=O)N[C@@H](Cc1ccccc1)C(N)=O)[C@@H](C)CC)[C@@H](C)CC,NIH 3T3,cytotoxicity,,,IC50,42.2 µg/mL
CC(C)CC(OC1OC(CO)C(O)C(OC(=O)C=Cc2ccccc2)C1O)(C(=O)OCc1ccc(OC2OC(CO)C(O)C(O)C2O)cc1)C(O)C(=O)OCc1ccc(OC2OC(CO)C(O)C(O)C2O)cc1 (stereo not drawn),MDA-MB-231 breast cancer,"cell viability, MTT",DMEM with 10% FBS,48 h,pIC50,< 3.70
Cn1cncc1[C@@]1(N)c2ccc(C#N)c(c2)COc2cccc(c2)-c2cc(C#N)nc3ccc1cc23,T24/83,"cell growth or viability, ATP luminescence",,96 h,pIC50,7.81
COc1cc(-n2cc3cc(F)cc(C(N)=O)c3n2)cc(Cl)c1C1CC(O)(CCO)Cc2ccccc21 (stereo not drawn),Caco-2,"cell growth or viability, MTT",,72 h,pIC50,6.82
Cc1cc(C)cc(COc2cc3c(cc2OCc2cc(C)cc(C)c2)[C@@H]2C[C@](O)(Cc4cn(Cc5ccc(F)cc5)nn4)C[C@H](C)N2CC3)c1 (relative stereo),ASPC1,"cell growth or viability, MTT",,,pIC50,6.36
NC(=O)c1ccc(-c2ccccc2Cl)c2c3c([nH]c12)CCC(N)C3 (stereo not drawn),U-937,cell growth or viability,,96 h,pIC50,7.80
CC[C@H](C)[C@H](NC(=O)[C@H](CCCCN)NC(=O)[C@H](Cc1ccccc1)NC(=O)C[C@H](CC(C)C)NC(=O)CN)C(=O)N[C@H](CC(=O)N[C@@H](CCCCN)C(=O)N[C@@H](CCCCN)C(=O)N[C@H](CC(=O)N[C@@H](CC(C)C)C(=O)N[C@@H](CCCCN)C(=O)N[C@@H](CC(C)C)C(=O)N[C@H](CC(N)=O)Cc1ccccc1)[C@@H](C)CC)[C@@H](C)CC,NIH 3T3,cytotoxicity,,,IC50,4.5 µg/mL
C=CC(=O)N1CCCC(n2c(=O)c3ncccc3n(Cc3ccc(Oc4ccccc4)cc3)c2=O)C1 (stereo not drawn),OCI-Ly18,"cell growth or viability, MTT",,72 h,pIC50,7.00

# Some of these lines once more:
SMILES,cell line,test,test system,setting,measurement,value
Cn1ncc(-c2ccc3c(=O)[nH]nc(CN)c3c2)c1-c1c(F)c(Cl)cc(OC2CC2)c1C#N,SNU-387,"cell viability, inhibitor, CellTiter-Glo",,"120 h, baseline-subtracted",pIC50,5.84
CS(=O)(=O)c1sc(NC(=O)Nc2ccc(Cl)cc2)c2c1C=CCC2,PANC-1 NUPR1 wild-type clone,cell viability,,72 h,pIC50,5.09
O=C(NCCOCCOCCNC(=O)c1cc2ccccc2c2ccccc12)c1cc(C(=O)N2CCNCCNCCNCC2)c(O)c(C(=O)N2CCNCCNCCNCC2)c1,WI-38,"cell growth or viability, MTT",,24 h,pIC50,< 3.00
NCCOc1cc(NC(=O)c2cc(OCc3cn([C@H]4O[C@@H](CO)[C@H](O)[C@@H](O)[C@@H]4O)nn3)cc(C(=O)Nc3cc(OCCN)c4ccccc4n3)n2)nc2ccccc12,WI-38,"cell growth or viability, ATP luminescence",,72 h,pIC50,< 4.40
CCOc1cncc(-c2ccc(NC(=O)C3(c4ccnc(NS(=O)(=O)C5CC5)n4)CCOCC3)nc2)n1,EOL1,"cell proliferation, CellTiter-Glo",,72 h,pIC50,8.10
CC[C@H](C)[C@H](NC(=O)[C@H](CCCCN)NC(=O)C[C@H](Cc1ccccc1)NC(=O)[C@H](CC(C)C)NC(=O)CN)C(=O)N[C@H](CC(=O)N[C@@H](CCCCN)C(=O)N[C@@H](CCCCN)C(=O)N[C@H](CC(=O)N[C@@H](C)C(=O)N[C@@H](CCCCN)C(=O)N[C@@H](CO)CC(=O)N[C@@H](Cc1ccccc1)C(N)=O)[C@@H](C)CC)[C@@H](C)CC,NIH 3T3,cytotoxicity,,,IC50,42.2 µg/mL
